Experimental data collected from several papers.
Compare with care: the assays were run in different laboratories. ± gives the spread as reported.
lecA: PA-I galactophilic lectin (lecA, Pseudomonas aeruginosa, UniProt Q05097)
UniProt Q05097, sequence (whole entry, looked up): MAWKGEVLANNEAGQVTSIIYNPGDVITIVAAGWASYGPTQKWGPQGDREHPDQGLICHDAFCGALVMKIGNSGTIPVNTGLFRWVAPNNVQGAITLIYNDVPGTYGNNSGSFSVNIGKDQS
Histone chaperone ASF1A: Histone chaperone ASF1A (Homo sapiens, UniProt Q9Y294)
UniProt Q9Y294, sequence (whole entry, looked up): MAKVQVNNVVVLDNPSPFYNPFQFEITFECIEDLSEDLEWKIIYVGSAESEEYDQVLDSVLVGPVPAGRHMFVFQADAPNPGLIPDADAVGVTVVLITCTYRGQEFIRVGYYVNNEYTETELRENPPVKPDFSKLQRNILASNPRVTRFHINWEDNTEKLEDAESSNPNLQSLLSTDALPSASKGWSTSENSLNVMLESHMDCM
Complement C3: Complement C3 (Homo sapiens, UniProt P01024)
UniProt P01024, sequence (whole entry, looked up): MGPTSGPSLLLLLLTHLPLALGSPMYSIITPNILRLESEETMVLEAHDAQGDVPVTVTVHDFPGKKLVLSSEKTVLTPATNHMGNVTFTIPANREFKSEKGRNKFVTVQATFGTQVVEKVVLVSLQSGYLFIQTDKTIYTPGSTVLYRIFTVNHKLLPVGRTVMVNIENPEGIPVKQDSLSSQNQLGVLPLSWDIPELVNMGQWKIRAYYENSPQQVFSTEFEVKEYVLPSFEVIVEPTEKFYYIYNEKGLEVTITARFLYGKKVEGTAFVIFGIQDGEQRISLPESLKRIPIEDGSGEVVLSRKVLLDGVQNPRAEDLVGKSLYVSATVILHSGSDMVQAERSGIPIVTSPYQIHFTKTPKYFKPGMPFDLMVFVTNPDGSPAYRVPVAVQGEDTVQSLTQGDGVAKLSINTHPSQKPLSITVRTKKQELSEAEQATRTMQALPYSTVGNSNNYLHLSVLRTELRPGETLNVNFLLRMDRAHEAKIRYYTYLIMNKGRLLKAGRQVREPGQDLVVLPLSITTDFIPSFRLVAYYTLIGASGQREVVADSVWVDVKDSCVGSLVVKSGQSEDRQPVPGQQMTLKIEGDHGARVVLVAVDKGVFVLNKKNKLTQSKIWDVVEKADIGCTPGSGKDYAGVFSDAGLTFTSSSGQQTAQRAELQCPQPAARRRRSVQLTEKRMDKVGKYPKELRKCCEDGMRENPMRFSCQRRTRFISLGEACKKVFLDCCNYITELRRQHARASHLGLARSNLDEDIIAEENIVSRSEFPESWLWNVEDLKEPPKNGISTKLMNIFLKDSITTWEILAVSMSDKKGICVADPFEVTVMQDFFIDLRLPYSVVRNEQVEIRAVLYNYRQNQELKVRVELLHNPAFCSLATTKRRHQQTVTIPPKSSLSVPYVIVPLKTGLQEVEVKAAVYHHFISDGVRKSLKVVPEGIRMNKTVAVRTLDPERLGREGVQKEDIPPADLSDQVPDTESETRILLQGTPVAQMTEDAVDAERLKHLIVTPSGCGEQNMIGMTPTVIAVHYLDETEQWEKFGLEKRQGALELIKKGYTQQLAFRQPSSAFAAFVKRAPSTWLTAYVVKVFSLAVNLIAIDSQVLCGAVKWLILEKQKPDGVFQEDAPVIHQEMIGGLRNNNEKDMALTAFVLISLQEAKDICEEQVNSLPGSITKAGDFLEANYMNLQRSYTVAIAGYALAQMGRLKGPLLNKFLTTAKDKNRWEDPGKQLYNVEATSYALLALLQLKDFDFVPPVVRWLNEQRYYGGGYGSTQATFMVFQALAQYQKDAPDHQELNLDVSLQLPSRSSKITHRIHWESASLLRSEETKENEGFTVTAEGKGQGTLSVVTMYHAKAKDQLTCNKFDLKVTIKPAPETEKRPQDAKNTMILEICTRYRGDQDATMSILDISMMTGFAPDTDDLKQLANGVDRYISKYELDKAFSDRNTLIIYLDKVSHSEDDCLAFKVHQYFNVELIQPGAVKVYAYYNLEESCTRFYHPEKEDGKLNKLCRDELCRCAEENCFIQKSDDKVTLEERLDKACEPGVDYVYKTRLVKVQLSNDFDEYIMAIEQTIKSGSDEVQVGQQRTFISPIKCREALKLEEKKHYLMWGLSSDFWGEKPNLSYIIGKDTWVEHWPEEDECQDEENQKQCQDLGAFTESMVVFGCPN
UniProt P43219, sequence (whole entry, looked up): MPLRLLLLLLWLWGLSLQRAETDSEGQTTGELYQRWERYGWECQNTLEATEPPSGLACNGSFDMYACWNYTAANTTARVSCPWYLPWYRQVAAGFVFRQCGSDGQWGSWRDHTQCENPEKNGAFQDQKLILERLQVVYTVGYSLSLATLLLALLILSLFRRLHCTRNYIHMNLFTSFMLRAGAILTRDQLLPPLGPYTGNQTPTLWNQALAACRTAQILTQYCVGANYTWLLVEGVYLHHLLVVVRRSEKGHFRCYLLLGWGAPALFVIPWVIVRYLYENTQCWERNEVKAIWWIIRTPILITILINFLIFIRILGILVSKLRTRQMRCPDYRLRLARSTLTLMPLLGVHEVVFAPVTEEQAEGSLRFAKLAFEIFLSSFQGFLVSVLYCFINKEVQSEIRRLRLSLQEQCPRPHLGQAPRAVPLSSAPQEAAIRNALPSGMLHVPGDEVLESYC
UniProt P25023, sequence (whole entry, looked up): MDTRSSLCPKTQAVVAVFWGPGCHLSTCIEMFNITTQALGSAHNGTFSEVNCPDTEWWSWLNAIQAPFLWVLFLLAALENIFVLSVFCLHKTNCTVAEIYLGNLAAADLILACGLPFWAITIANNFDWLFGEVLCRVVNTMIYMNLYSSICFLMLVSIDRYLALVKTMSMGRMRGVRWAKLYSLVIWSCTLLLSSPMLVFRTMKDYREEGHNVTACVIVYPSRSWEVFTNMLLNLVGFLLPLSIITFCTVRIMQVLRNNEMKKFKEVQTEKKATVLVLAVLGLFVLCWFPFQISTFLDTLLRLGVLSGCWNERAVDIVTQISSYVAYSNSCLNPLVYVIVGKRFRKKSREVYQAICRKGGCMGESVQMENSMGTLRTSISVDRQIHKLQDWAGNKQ
UniProt Q02750, sequence (whole entry, looked up): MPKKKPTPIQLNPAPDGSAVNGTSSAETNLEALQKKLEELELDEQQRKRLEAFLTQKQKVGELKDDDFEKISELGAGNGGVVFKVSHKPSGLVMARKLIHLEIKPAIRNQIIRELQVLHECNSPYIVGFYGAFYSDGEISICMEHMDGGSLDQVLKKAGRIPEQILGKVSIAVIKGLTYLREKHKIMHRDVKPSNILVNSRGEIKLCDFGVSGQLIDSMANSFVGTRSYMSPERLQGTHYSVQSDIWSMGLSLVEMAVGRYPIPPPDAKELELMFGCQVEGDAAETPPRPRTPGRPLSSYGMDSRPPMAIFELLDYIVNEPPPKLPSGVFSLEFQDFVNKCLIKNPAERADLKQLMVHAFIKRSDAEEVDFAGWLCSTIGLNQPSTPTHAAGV
UniProt P78417, sequence (whole entry, looked up): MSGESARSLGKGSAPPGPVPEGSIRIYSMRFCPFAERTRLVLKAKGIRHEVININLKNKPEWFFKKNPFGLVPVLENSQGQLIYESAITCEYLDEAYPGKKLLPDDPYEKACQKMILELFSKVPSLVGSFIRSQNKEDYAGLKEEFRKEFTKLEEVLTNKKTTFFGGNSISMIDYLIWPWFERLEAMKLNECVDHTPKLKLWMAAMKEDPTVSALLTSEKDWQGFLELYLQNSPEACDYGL
UniProt P03951, sequence (whole entry, looked up): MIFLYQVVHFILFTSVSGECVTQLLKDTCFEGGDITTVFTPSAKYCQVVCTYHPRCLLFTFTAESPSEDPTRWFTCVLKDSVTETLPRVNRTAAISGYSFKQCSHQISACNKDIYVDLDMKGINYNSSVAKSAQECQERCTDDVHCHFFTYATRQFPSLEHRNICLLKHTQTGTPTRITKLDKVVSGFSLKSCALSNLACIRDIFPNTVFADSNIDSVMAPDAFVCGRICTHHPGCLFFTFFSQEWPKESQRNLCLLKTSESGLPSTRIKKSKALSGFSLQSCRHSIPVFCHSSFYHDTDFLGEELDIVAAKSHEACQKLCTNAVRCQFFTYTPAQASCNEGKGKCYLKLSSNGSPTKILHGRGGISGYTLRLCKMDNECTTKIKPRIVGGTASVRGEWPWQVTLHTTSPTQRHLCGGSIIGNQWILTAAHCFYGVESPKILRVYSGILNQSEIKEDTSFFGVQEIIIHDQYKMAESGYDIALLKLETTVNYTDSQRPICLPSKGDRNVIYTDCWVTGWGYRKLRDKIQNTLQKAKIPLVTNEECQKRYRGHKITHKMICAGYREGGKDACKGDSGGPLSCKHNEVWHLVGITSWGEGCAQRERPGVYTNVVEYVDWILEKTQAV
UniProt Q15691, sequence (whole entry, looked up): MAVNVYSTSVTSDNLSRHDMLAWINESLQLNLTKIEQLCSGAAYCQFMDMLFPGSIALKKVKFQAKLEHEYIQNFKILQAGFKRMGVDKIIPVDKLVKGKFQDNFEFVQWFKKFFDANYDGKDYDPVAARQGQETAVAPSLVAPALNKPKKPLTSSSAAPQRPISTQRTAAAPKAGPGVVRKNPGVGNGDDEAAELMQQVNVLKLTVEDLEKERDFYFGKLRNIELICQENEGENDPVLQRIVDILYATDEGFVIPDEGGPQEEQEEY
UniProt P63104, sequence (whole entry, looked up): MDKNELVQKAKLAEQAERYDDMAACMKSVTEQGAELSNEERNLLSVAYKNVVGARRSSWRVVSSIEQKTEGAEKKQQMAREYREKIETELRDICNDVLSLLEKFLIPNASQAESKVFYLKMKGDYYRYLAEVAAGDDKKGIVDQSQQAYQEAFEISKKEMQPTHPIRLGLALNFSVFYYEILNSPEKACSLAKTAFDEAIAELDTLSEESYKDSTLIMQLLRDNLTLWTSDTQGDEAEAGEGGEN
UniProt P00940, sequence (whole entry, unmodified, looked up): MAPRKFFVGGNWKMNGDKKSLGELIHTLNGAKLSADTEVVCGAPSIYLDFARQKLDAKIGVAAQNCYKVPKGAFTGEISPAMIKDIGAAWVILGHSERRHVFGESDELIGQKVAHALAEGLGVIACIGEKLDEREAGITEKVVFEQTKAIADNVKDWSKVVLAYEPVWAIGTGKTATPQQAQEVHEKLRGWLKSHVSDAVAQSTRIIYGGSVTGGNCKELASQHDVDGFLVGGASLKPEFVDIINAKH

CC[C@H](C)[C@H](NC(=O)[C@H](CCCNC(=N)N)NC(=O)[C@H](CCCCN)NC(=O)[C@@H](NC(=O)[C@H](C)NC(=O)[C@H](CCCNC(=N)N)NC(=O)[C@H](CCC(N)=O)NC(=O)[C@H](CO)NC(=O)[C@H](CCCCN)NC(=O)[C@H](CC(N)=O)NC(=O)[C@@H](N)CCCNC(=N)N)[C@@H](C)O)C(=O)N[C@@H](CO)C(=O)N[C@@H](Cc1c[nH]cn1)C(=O)N[C@@H](CCSC)C(=O)N1CCC[C@H]1C(=O)N[C@@H](CO)C(=O)N[C@@H](CCCNC(=N)N)C(=O)N1CCC[C@H]1C(=O)N[C@@H](CCC(=O)O)C(=O)N[C@@H](CC(C)C)C(=O)N[C@@H](CO)C(=O)N[C@@H](C)C(=O)N[C@H](C(=O)N[C@@H](C)C(=O)N[C@H](C(=O)N[C@@H](CC(=O)O)C(=O)N[C@@H](CC(C)C)C(=O)N[C@@H](CCCNC(=N)N)C(=O)N[C@@H](CCCCN)C(=O)N[C@@H](CC(=O)O)C(=O)N[C@@H](CCCCN)C(=O)N[C@@H](C)C(=O)N[C@@H](CCCCN)C(=O)N[C@@H](COP(=O)(O)O)C(=O)N[C@@H](CSC/C=C(\C)CC/C=C(\C)CCC=C(C)C)C(=O)OC)[C@@H](C)O)C(C)C
koff (YWHAZ (Homo sapiens, UniProt P63104); dissociation, stopped-flow fluorescence polarization; two-step model): 10.9 s⁻¹

OC[C@H]1O[C@@H](Oc2ccc(-c3cn([C@@H]4O[C@H](CO)[C@@H](n5cc(CCCCc6cn([C@H]7[C@H](O)[C@@H](O)[C@H](n8cc(-c9ccc(O[C@@H]%10O[C@H](CO)[C@H](O)[C@H](O)[C@H]%10O)cc9)nn8)O[C@@H]7CO)nn6)nn5)[C@H](O)[C@H]4O)nn3)cc2)[C@H](O)[C@@H](O)[C@H]1O
binding stoichiometry (lecA; isothermal titration calorimetry; concentration not given, 25 °C): 0.43 ± 0.03

Cc1ccc(C(=O)Nc2ccc(CP(=O)(O)O)cc2CP(=O)(O)O)cc1NC(=O)c1cccc(NC(=O)Nc2cccc(C(=O)Nc3cc(C(=O)Nc4ccc(CP(=O)(O)O)cc4CP(=O)(O)O)ccc3C)c2)c1
Vmax (F11 (Homo sapiens, UniProt P03951); enzyme activity, inhibitor; 50 µM, with: S-2366 substrate): 50 ± 2.5 mAU/min

Clc1ccc2ccc3[n+](c2c1)[Ir-3]12([c]4ccccc4-3)([c]3ccccc3-c3ccc4ccc(Cl)cc4[n+]31)[n+]1ccccc1-c1cccc[n+]12.F[P-](F)(F)(F)(F)F
ΔG (CDK9 (Homo sapiens, UniProt P50750); isothermal titration calorimetry; 25 °C): -9.38 kcal/mol

CC[C@H](C)[C@H](NC(=O)[C@H](CCCNC(=N)N)NC(=O)[C@H](CCCNC(=N)N)NC(=O)[C@H](C)NC(=O)[C@H](CC(C)C)NC(=O)[C@H](CCCNC(=N)N)NC(=O)[C@H](C)NC(=O)[C@H](Cc1c[nH]c2ccccc12)NC(=O)[C@H](CCCCN)NC(=O)[C@H](CCC(=O)O)NC(C)=O)C(=O)N[C@@H](C)C(N)=O
-TΔS (Histone chaperone ASF1A; isothermal titration calorimetry; pH 7.5, 20 °C): 2.2 ± 0.9 kcal/mol

CCCC[C@H](NC(=O)[C@@H]1CSSC[C@H](NC(=O)[C@@H](NC(C)=O)[C@@H](C)CC)C(=O)N[C@@H](C(C)C)C(=O)N[C@@H](Cc2cn(C)c3ccccc23)C(=O)N[C@@H](CCC(N)=O)C(=O)N[C@@H](CC(=O)O)C(=O)N[C@@H](Cc2c[nH]c3ccccc23)C(=O)N(C)CC(=O)N[C@@H](C)C(=O)N[C@@H](Cc2c[nH]cn2)C(=O)N[C@@H](CCCNC(=N)N)C(=O)N1)C(N)=O
relative dissociation rate constant (Complement C3, C3b fragment (Homo sapiens, UniProt P01024); SPR; 25 °C; baseline: [Trp(Me)4]-Ac-compstatin): 1.7

CC[C@H](C)[C@H](NC(C)=O)C(=O)N[C@H]1CSSC[C@@H](C(=O)N[C@H](C(N)=O)[C@@H](C)O)NC(=O)[C@H](CCCNC(=N)N)NC(=O)[C@H](Cc2c[nH]cn2)NC(=O)[C@H](C)NC(=O)CNC(=O)[C@H](Cc2c[nH]c3ccccc23)NC(=O)[C@H](CC(=O)O)NC(=O)[C@H](CCC(N)=O)NC(=O)[C@H](Cc2ccc(OC)cc2)NC(=O)[C@H](C(C)C)NC1=O
−TΔS (Complement C3; ITC; pH 7.4, 25 °C): 8.5 kcal/mol

C=C1CCN2C(=O)COc3cccc(c3)C(CCc3ccc(OC)c(OC)c3)OC(=O)C3CCCCN3C(=O)C(=O)C(C)(C)COC(=O)C(C)NC(=O)C2C1 (stereo not drawn)
recruitment (FKBP1A/MAPRE1 (Homo sapiens, UniProt P62942+Q15691); FKBP12-MAPRE1 proximity, TR-FRET; baseline: DMSO): 0%

CC1=C(O)C(=O)C=C2C1=CC=C1[C@@]2(C)CC[C@@]2(C)[C@@H]3C[C@](C)(C(=O)NCCOCCOCCOCCOCC(=O)N[C@H](C(=O)N4C[C@H](O)C[C@H]4C(=O)N[C@@H](C)c4ccc(-c5scnc5C)cc4)C(C)(C)C)CC[C@]3(C)CC[C@]12C
time window of efficient degradation (Nuclear receptor subfamily 4 group A member 1 (NR4A1, Homo sapiens, UniProt P22736); degrader, immunoblotting; CHL-1; 500 nM): 8 to 48 h

CC(=O)N[C@H]1NC[C@H](C(=O)O)[C@H](O)[C@@H]1O
released sialic acid (Sialidase-2 (Homo sapiens, UniProt Q9Y3R4); α2,3-sialyllactose hydrolysis; 600 µM, 1 h, pH 6.0, with: α2,3-sialyllactose): 387 µmol

N=C(N)NCCC[C@H](NC(=O)[C@H](Cc1ccccc1)NC(=O)[C@@H]1CCCN1C(=O)[C@H](CO)NC(=O)[C@H](Cc1ccccc1)NC(=O)CNC(=O)[C@@H]1CCCN1C(=O)[C@@H]1CCCN1C(=O)[C@@H](N)CCCNC(=N)N)C(=O)O
Emax (B2 bradykinin receptor (Rattus norvegicus, UniProt P25023); inositol phosphate accumulation, agonist; primary rat trigeminal ganglion cells; with: Pro-Ile 200 µM): 58 ± 3 % above basal

O=C(CCl)N(CCNC(=O)C(F)(F)F)c1ccc([N+](=O)[O-])cc1
modified species fraction (GSTO1 (Homo sapiens, UniProt P78417); LC-MS/MS, measured: active site Cys32 peptide; 10 µM, 30 min, GSTO1 50 µM): 100%

CNS(=O)(=O)Nc1cccc(-n2c(=O)n(C3CC3)c(=O)c3c(Nc4ccc(I)cc4F)n(C)c(=O)c(C)c32)c1
outcome (MAP2K1 (Homo sapiens, UniProt Q02750); substrate phosphorylation, inhibitor; 1 µM): inhibited

O=C(CCC1CO1)Oc1ccc([N+](=O)[O-])cc1 (racemic)
signal to noise ratio (Epoxide hydrolase 1 (Ephx1, Rattus norvegicus, UniProt P07687); substrate, absorbance; 50 µM, pH 9.0, 37 °C, rat enzyme): > 40

O=C(COc1ccc2ccccc2c1)N[C@@H](Cc1cn(CCNC(=O)c2ccc(S[C@@H]3O[C@H](CO)[C@H](O)[C@H](O)[C@H]3O)cc2)nn1)C(=O)NCCO
ΔH (lecA; binding, isothermal titration calorimetry; 25 °C): -9.25 ± 0.669 kcal/mol

O[C@@H]1[C@@H](O)[C@H](O[C@@H]2OC[C@@H](O)[C@H](O)[C@H]2O)C[C@H]2O[C@@H]12
kinact/KI (endo-1,4-beta-xylanase (Aspergillus aculeatus, UniProt A0A1L9WG58); covalent inhibitor; pH 5.0, with: 4MU-beta-D-xylobioside): 4330 M⁻¹ s⁻¹

CC[C@H](C)[C@H](NC(=O)[C@H](CCCNC(=N)N)NC(=O)NC[C@H](CCC(N)=O)NC(=O)NC[C@@H](NC(=O)NC[C@H](CCCNC(=N)N)NC(=O)NC[C@H](Cc1ccc2ccccc2c1)NC(=O)[C@H](CCCCN)NC(=O)[C@H](CCC(=O)O)NC(C)=O)C(c1ccccc1)c1ccccc1)C(=O)N[C@@H](C)C(N)=O
binding enthalpy (Histone chaperone ASF1A; isothermal titration calorimetry; concentration not given, pH 7.5, 20 °C): -3.5 ± 0.6 kcal/mol

CC[C@H](C)[C@H](NC(C)=O)C(=O)N[C@H]1CSSC[C@@H](C(=O)N[C@H](C(N)=O)[C@@H](C)O)NC(=O)[C@H](CCCNC(=N)N)NC(=O)[C@H](Cc2c[nH]cn2)NC(=O)[C@@H]2CCCN2C(=O)CNC(=O)[C@H](Cc2c[nH]c3ccccc23)NC(=O)[C@H](CC(=O)O)NC(=O)[C@H](CCC(N)=O)NC(=O)[C@H](Cc2cn(C)c3ccccc23)NC(=O)[C@H](C(C)C)NC1=O
-TΔΔS (Complement C3; isothermal titration calorimetry; baseline: 1-methyltryptophan reference): -1.7 kcal/mol

NCCO[C@H]1[C@H](O)[C@@H](O)[C@@H]2O[C@@H]2[C@@H]1C(=O)O
highest non-inhibiting concentration (Beta-glucuronidase (GUSB, Homo sapiens, UniProt P08236); inhibitor, competitive ABPP; human platelet lysate): > 100 µM

CC[C@H](C)[C@H](NC(=O)[C@H](CO)NC(=O)[C@H](Cc1ccc(O)cc1)NC(=O)[C@H](CC(=O)O)NC(=O)[C@H](CO)NC(=O)[C@@H](NC(=O)[C@H](Cc1ccccc1)NC(=O)[C@@H](NC(=O)CNC(=O)[C@@H]1CCCN1C(=O)[C@H](C)NC(=O)[C@@H](N)Cc1ccc(O)cc1)[C@@H](C)O)[C@@H](C)CC)C(=O)N[C@@H](C)C(=O)N[C@@H](CCSC)C(=O)N[C@@H](CC(=O)O)C(=O)N[C@@H](CCCCN)C(=O)N[C@H](C(=O)N[C@@H](CCCNC(=N)N)C(=O)N[C@@H](CCC(N)=O)C(=O)N[C@@H](CCC(N)=O)C(=O)N[C@@H](CC(=O)O)C(=O)N[C@@H](Cc1ccccc1)C(=O)N[C@H](C(=O)N[C@@H](CC(N)=O)C(=O)N[C@@H](Cc1c[nH]c2ccccc12)C(=O)N[C@@H](CC(C)C)C(=O)N[C@@H](CC(C)C)C(=O)N[C@@H](C)C(=O)N[C@@H](CCC(N)=O)C(=O)N[C@@H](CCCCN)C(=O)NCC(=O)N[C@@H](CCCCN)C(=O)N[C@@H](CCCCN)C(=O)N[C@@H](CC(N)=O)C(=O)N[C@@H](CC(=O)O)C(=O)N[C@@H](Cc1c[nH]c2ccccc12)C(=O)N[C@@H](CCCCN)C(=O)N[C@@H](Cc1c[nH]cn1)C(=O)N[C@@H](CC(N)=O)C(=O)N[C@@H](CC(C)C)C(=O)N[C@H](C(=O)N[C@@H](CCC(N)=O)C(=O)O)[C@@H](C)O)C(C)C)[C@@H](C)CC
Emax (Gastric inhibitory polypeptide receptor (Rattus norvegicus, UniProt P43219); cAMP, agonist; COS-7): 64%

O=C1c2ccc(O)cc2OC(Oc2ccc(-c3coc4cc(O)ccc4c3=O)cc2)C1(O)c1ccc(O)cc1 (stereo not drawn)
Hill coefficient (laccase (Trametes versicolor); substrate, Hill kinetic model; product formation): 2.04

CC[C@H](C)[C@@H]1NC(=O)[C@H](Cc2ccc(O)cc2)NC(=O)[C@@H](N)Cn2cc(nn2)CCCC[C@@H](C(=O)N2CCC[C@H]2C(=O)N[C@@H](CC(C)C)C(=O)NCC(N)=O)NC(=O)[C@H](CC(N)=O)NC(=O)[C@H](CCC(N)=O)NC1=O
Emax (Oxytocin receptor (OXTR, Homo sapiens, UniProt P30559); inositol phosphate, agonist; HEK293): 32.6%

O=C(CO)COP(=O)(O)O
kcat/Km (Triosephosphate isomerase (TPI1, Gallus gallus, UniProt P00940, V167P/W168E); isomerisation, substrate): 20 M⁻¹ s⁻¹

CNS(=O)(=O)Nc1nccc(Cc2c(C)c3ccc(Oc4ncccc4F)cc3oc2=O)c1F
remaining binding (MAPK9 (Homo sapiens, UniProt P45984); cell-free assay, competition with immobilised ligand; 1 µM): 20%

For quick reference, copied from above:
CNS(=O)(=O)Nc1cccc(-n2c(=O)n(C3CC3)c(=O)c3c(Nc4ccc(I)cc4F)n(C)c(=O)c(C)c32)c1
outcome (MAP2K1 (Homo sapiens, UniProt Q02750); substrate phosphorylation, inhibitor; 1 µM): inhibited

O=C(CCC1CO1)Oc1ccc([N+](=O)[O-])cc1 (racemic)
signal to noise ratio (Epoxide hydrolase 1 (Ephx1, Rattus norvegicus, UniProt P07687); substrate, absorbance; 50 µM, pH 9.0, 37 °C, rat enzyme): > 40
